Experimental data gathered from unrelated publications.
Lines come from different studies, so protocols differ.

| Structure (SMILES) | organism | assay | system | setting | MIC |
| --- | --- | --- | --- | --- | --- |
| Cc1c(CN(C)C(=O)/C=C/c2cnc3c(c2)CC(N)C(=O)N3)oc2ccccc12 (stereo not drawn) | Escherichia coli | broth microdilution | AR-0495 | – | 4 µg/mL |
| CC1(C)[C@H](NC(=O)/C(=N\OCc2cc(=O)c(O)cn2O)c2csc(N)n2)C(=O)N1OS(=O)(=O)O | Proteus mirabilis | agar dilution | ATCC 49565 susceptible | – | ≤ 0.03 µg/mL |
| O=CCNCCOn1c(=O)n(OCCNCCO)c(=O)n(OCCNCCOn2c(=O)n(OCCNCCO)c(=O)n(OCCNCCO)c2=O)c1=O | Proteus mirabilis | microbial growth, broth dilution | – | – | 2 µg/mL |
| C[C@@H]1C(=O)O[C@@H](C)/C=C/C=C\[C@@H](C)[C@@H]2C=C[C@@H]3C[C@@]4(C)O[C@H]4[C@@H](C)[C@H]3[C@@H]2C(=O)C(Cl)(Cl)C1=O | Staphylococcus aureus | – | MRSA clinical isolate | resistant: OXA,CLI,DOX,ERY,TET,TOB | 0.1 µg/mL |
| CN[C@H](CC(C)C)C(=O)N[C@H]1C(=O)N[C@@H](CC(N)=O)C(=O)N[C@H]2C(=O)N[C@H]3C(=O)N[C@H](C(=O)N[C@H](C(=O)O)c4cc(O)cc(O)c4-c4cc3ccc4O)[C@H](O)c3ccc(c(Cl)c3)Oc3cc2cc(c3O[C@@H]2O[C@H](CO)[C@@H](O)[C@H](O)[C@H]2O[C@H]2C[C@](C)(N)[C@H](O)[C@H](C)O2)Oc2ccc(cc2Cl)[C@H]1O | Gram-negative bacteria | – | – | seven strains | 43.3 µM |
| COc1c(NC(=O)c2ccc(NC(=O)[C@H](Cc3c[nH]nn3)NC(=O)c3ccc(NC(=O)/C(C)=C/c4ccc(O)cc4)cc3)cc2)ccc(C(=O)Nc2ccc(C(=O)O)cc2)c1O | Bacillus subtilis | broth microdilution | DSM 10 | – | 0.5 µg/mL |
| CCCCCCC#Cc1cncc(-c2nnc(SCc3cc([N+](=O)[O-])cc([N+](=O)[O-])c3)n2C)c1 | ESKAPE panel pathogens | – | – | – | > 64 µg/mL |
| C#CCO/N=C(\C(=O)N[C@@H]1C(=O)N(OS(=O)(=O)O)C1(C)C)c1nsc(N)n1 | Proteus mirabilis | agar dilution | ATCC 49565, susceptible | – | 2 µg/mL |
| CC[C@H]1OC(=O)[C@H](C)[C@@H](OC(=O)Cc2ccc([N+](=O)[O-])cc2)[C@H](C)[C@@H](O[C@@H]2O[C@H](C)C[C@H](N(C)C)[C@H]2O)[C@](C)(OC)C[C@@H](C)C(=O)[C@H](C)[C@@H](O)[C@]1(C)O | Bacillus subtilis | microbial growth | DSM402 | – | 0.1 µg/mL |
| C=CCO/N=C(\C(=O)N[C@@H]1C(=O)N(OS(=O)(=O)O)C1(C)C)c1nsc(N)n1 | Proteus mirabilis | agar dilution | ATCC 49565, susceptible | – | 0.06 µg/mL |
| C=C(NC(=O)c1csc(-c2cccnc2)n1)C(=O)NC(=C)C(=O)OC | Enterococcus hirae | microbial growth | ATCC10541 | – | > 20 µM |
| C/C(=C\c1ccc(O)cc1)C(=O)Nc1ccc(C(=O)N[C@@H](Cc2c[nH]nn2)C(=O)Nc2ccc(C(=O)Nc3ccc(C(=O)Nc4ccc(C(=O)O)c(O)c4)c(O)c3)cc2)cc1 | Bacillus subtilis | broth microdilution | DSM 10 | – | 1 µg/mL |
| C#CCNC(=O)C(C)(C)O/N=C(\C(=O)N[C@@H]1C(=O)N(S(=O)(=O)O)[C@H]1C)c1csc(N)n1 | Proteus mirabilis | agar dilution | ATCC 49565 susceptible | – | 1 µg/mL |
| COC1C=COC2(C)Oc3c(C)c(O)c4c(c3C2=O)C2=NC3(CCN(CC(C)C)CC3)NC2=C(NC(=O)C(C)=CC=CC(C)C(O)C(C)C(O)C(C)C(OC(=O)Nc2cscn2)C1C)C4=O (stereo not drawn) | Mycobacteroides abscessus | – | ATCC 19977 | single-strain MIC | 46.6 µg/mL |
| CC1(C)[C@H](NC(=O)/C(=N\OC2(C(=O)O)CCCC2)c2csc(N)n2)C(=O)N1OS(=O)(=O)O | Proteus mirabilis | agar dilution | ATCC 49565, susceptible | – | 0.06 µg/mL |
| CC[C@H]1OC(=O)[C@H](C)[C@@H](OC(=O)Cc2cccc(Cl)c2)[C@H](C)[C@@H](O[C@@H]2O[C@H](C)C[C@H](N(C)C)[C@H]2O)[C@](C)(OC)C[C@@H](C)C(=O)[C@H](C)[C@@H](O)[C@]1(C)O | Bacillus subtilis | microbial growth | DSM402 | – | 2 µg/mL |
| CC1C=CC=CC(C)C2C=CC3CC(C)(O)C(Cl)C(C)C3C2C(=O)C(Cl)(Cl)C(=O)C(C)C(=O)O1 (stereo not drawn) | Staphylococcus aureus | – | clinical MSSA isolate | – | 0.1 µg/mL |
| C=CCO/N=C(\C(=O)N[C@@H]1C(=O)N(OS(=O)(=O)O)C1(C)C)c1csc(N)n1 | Proteus mirabilis | agar dilution | ATCC 49565, susceptible | – | 0.125 µg/mL |
| Oc1cc(Cl)ccc1Oc1ccc(CNc2ccccc2)cc1Cl | Mycobacterium tuberculosis | – | H37Rv | – | 50 µg/mL |
| CC[C@H]1OC(=O)[C@H](C)[C@@H](OC(=O)Cc2ccc(C(F)(F)F)cc2)[C@H](C)[C@@H](O[C@@H]2O[C@H](C)C[C@H](N(C)C)[C@H]2O)[C@](C)(OC)C[C@@H](C)C(=O)[C@H](C)[C@@H](O)[C@]1(C)O | Bacillus subtilis | microbial growth | DSM402 | – | 2 µg/mL |
| CC1(C)[C@H](NC(=O)/C(=N\OCC(=O)N2CCC[C@@H]2C(=O)O)c2nsc(N)n2)C(=O)N1OS(=O)(=O)O | Proteus mirabilis | agar dilution | ATCC 49565, susceptible | – | 0.25 µg/mL |
| CC[C@H]1OC(=O)[C@H](C)[C@@H](OC(=O)Cc2ccc(N)cc2)[C@H](C)[C@@H](O[C@@H]2O[C@H](C)C[C@H](N(C)C)[C@H]2O)[C@](C)(OC)C[C@@H](C)C(=O)[C@H](C)[C@@H](O)[C@]1(C)O | Bacillus subtilis | microbial growth | DSM402 | – | 2 µg/mL |
| C=C[C@]1(C)C[C@@H](OC(=O)CSc2ccc(NC(=O)c3ccco3)cc2)[C@]2(C)[C@H](C)CC[C@]3(CCC(=O)[C@H]32)[C@@H](C)[C@@H]1O | Mycoplasma gallisepticum | – | chicken lung isolates | 50 mg/kg to chickens | 0.00195 µg/mL |
| C=C(NC(=O)c1csc(-c2nc3c(cc2O)-c2nc(cs2)C(=O)NC(C(C)O)C(=O)NC(=C(C)OC)c2nc(cs2)C(=O)NC2c4nc(cs4)C(=O)NC(COC(=O)c4c5c6c(cccc6n4O)COC(=O)C(OC4CC(C)(O)C(N(C)C)C(C)O4)C2OC5)c2nc-3cs2)n1)C(N)=O (stereo not drawn) | Streptococcus pneumoniae | – | ATCC 49619 | – | 0.0078 µg/mL |
| CCOc1c(NC(=O)c2ccc(NC(=O)[C@H](Cc3c[nH]nn3)NC(=O)c3ccc(NC(=O)/C(C)=C/c4ccc(O)cc4)cc3)cc2)ccc(C(=O)Nc2ccc(C(=O)O)c(O)c2OC)c1O | Bacillus subtilis | broth microdilution | DSM 10 | – | 0.125 µg/mL |
| CC1(C)[C@H](NC(=O)/C(=N\OCC(=O)N2CCC(C(=O)O)CC2)c2csc(N)n2)C(=O)N1OS(=O)(=O)O | Proteus mirabilis | agar dilution | ATCC 49565, susceptible | – | 0.5 µg/mL |
| Oc1cc(Cn2cc(-c3ccccc3)nn2)ccc1Oc1ccc(Cl)cc1Cl | Mycobacterium tuberculosis | – | H37Rv | – | > 100 µg/mL |

For quick reference, copied from above:
| Structure (SMILES) | organism | assay | system | setting | MIC |
| --- | --- | --- | --- | --- | --- |
| CC[C@H]1OC(=O)[C@H](C)[C@@H](OC(=O)Cc2ccc([N+](=O)[O-])cc2)[C@H](C)[C@@H](O[C@@H]2O[C@H](C)C[C@H](N(C)C)[C@H]2O)[C@](C)(OC)C[C@@H](C)C(=O)[C@H](C)[C@@H](O)[C@]1(C)O | Bacillus subtilis | microbial growth | DSM402 | – | 0.1 µg/mL |
| C#CCO/N=C(\C(=O)N[C@@H]1C(=O)N(OS(=O)(=O)O)C1(C)C)c1nsc(N)n1 | Proteus mirabilis | agar dilution | ATCC 49565, susceptible | – | 2 µg/mL |
| C/C(=C\c1ccc(O)cc1)C(=O)Nc1ccc(C(=O)N[C@@H](Cc2c[nH]nn2)C(=O)Nc2ccc(C(=O)Nc3ccc(C(=O)Nc4ccc(C(=O)O)c(O)c4)c(O)c3)cc2)cc1 | Bacillus subtilis | broth microdilution | DSM 10 | – | 1 µg/mL |
| CN[C@H](CC(C)C)C(=O)N[C@H]1C(=O)N[C@@H](CC(N)=O)C(=O)N[C@H]2C(=O)N[C@H]3C(=O)N[C@H](C(=O)N[C@H](C(=O)O)c4cc(O)cc(O)c4-c4cc3ccc4O)[C@H](O)c3ccc(c(Cl)c3)Oc3cc2cc(c3O[C@@H]2O[C@H](CO)[C@@H](O)[C@H](O)[C@H]2O[C@H]2C[C@](C)(N)[C@H](O)[C@H](C)O2)Oc2ccc(cc2Cl)[C@H]1O | Gram-negative bacteria | – | – | seven strains | 43.3 µM |
